Results from different studies.
Parts stem from different laboratories: compare values within a part only.

Block 1 — method: protein-binding microarray; form: double-stranded DNA, one strand shown; medium: in vitro; tested at: 0.8 µM; setting: whole 60-bp probe, no competitor; direction: higher = stronger binding
Target: Centromere-binding protein 1, full length, N-terminal tag (CBF1, Saccharomyces cerevisiae, UniProt P17106, residues 1-351)
UniProt P17106, sequence (whole entry, looked up): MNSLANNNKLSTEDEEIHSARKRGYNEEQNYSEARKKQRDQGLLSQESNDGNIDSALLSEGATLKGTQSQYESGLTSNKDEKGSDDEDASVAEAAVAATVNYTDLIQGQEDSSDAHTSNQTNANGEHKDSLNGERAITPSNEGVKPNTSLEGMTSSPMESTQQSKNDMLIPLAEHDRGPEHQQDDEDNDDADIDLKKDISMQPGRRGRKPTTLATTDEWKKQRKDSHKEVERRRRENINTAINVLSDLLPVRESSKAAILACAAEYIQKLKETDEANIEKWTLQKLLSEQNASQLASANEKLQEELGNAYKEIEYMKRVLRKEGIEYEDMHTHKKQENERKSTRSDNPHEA
Oligonucleotide | fluorescence intensity
GAATGTGCTCGTATTCTGGTGGTCATTAGACACTAGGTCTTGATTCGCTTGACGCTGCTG | 589 a.u.
GAACTTTGCTTTGCGGGTGAGAGGAAAAAAAAGTAGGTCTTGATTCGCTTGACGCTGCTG | 594 a.u.
CTAGGGCAAGTAAGTCACGTACTTTTTTTTTTTTTCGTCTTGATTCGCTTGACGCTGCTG | 1040 a.u.
TGTACGAAGCTATTGTGCGTGTATATAGTAGTTAGGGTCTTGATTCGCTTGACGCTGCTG | 547 a.u.
GAACCTATTATGAGCGTCACGATGGGACTTTAATAGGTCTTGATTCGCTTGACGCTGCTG | 659 a.u.
CTATTTTATTGTATGCTCGTGCCCGTTTTTTCTTTCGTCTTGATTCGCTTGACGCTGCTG | 930 a.u.
CTAAGGATTGACAGTGATGTAATAATGAACGAGTTCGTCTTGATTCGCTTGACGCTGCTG | 497 a.u.
GAATACATCGACAAACATGTGCAACAGCTCTAATAGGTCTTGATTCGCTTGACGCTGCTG | 625 a.u.
GAACGTAGGATAGGTTACATGATCATTGCAATATAGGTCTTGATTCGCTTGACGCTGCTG | 545 a.u.
GAAGACACACTTTAACACCTGAGTGGGTCATCATAGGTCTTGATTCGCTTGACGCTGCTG | 548 a.u.
CTACCCAATCTAACACACATGAGTCGTCGTACGTTCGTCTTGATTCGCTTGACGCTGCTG | 574 a.u.
CCTAACTACTATAAGATCGTGCAATAGCTTCGTACAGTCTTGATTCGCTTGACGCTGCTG | 552 a.u.
TGTACGAAGCTATAGCATGTGATTATAGTAGTTAGGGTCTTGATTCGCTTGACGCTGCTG | 2010 a.u.
GAATGATTAATTTGTTTCACCTGAGACTCTGTCTAGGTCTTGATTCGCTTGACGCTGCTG | 498 a.u.
CTAGAGGAGAAACTGAACGTGAACTGTGAAAAGTTCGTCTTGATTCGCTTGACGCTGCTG | 811 a.u.
CTATGTACAACATTCCACATGACGTAGGAATTGTTCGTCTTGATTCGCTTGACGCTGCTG | 999 a.u.
GAATCACCGTTGGACATCAGGATTTCCCACGATTAGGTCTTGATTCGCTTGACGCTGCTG | 503 a.u.
GAACGCAACTGCAACCACATGCAAATGCTGGCATAGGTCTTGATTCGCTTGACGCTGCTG | 612 a.u.
GAAACAGGAGTTCTGCATGTGCGTAATTCGAAGTAGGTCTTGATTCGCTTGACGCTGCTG | 634 a.u.
GAAAGATCTATATGTCACCATTGCTAAAGAGGATAGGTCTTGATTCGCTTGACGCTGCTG | 595 a.u.
CTACTAAATTGAAATCAGTTGAAAAACAGAAGGTTCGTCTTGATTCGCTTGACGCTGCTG | 632 a.u.
GAAGAACGTTGGAGCAGCGTCACGGGTGCGCAGTAGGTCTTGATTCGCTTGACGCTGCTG | 1320 a.u.
CTACATCGAAAGTACCACCACCCAAGTCGAAAATTCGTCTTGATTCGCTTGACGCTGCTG | 518 a.u.
GAAAGCAAATTCACACACGTTGTAGACGGCTGTTAGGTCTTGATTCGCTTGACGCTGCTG | 527 a.u.
CCTAACTACTATAATGACATCAGATAGCTTCGTACAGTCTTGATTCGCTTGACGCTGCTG | 546 a.u.

Block 2 — method: protein binding microarray; form: double-stranded DNA, one strand shown; medium: in vitro; tested at: not given; relative to: not given; direction: higher = stronger binding
Target: Histone acetyltransferase KAT6A, winged helix 1, GST fusion (KAT6A, Homo sapiens, UniProt Q92794, residues 1-85)
Setting: 8-mer, flanks averaged, mean of 2 arrays, mostly near background
Construct (chain): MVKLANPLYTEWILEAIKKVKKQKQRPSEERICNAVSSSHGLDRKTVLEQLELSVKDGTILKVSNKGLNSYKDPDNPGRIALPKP
Oligonucleotide | E-score
GTCGGAAC | 0.174
GTTCATTA | -0.0815
CTATCGAA | 0.0206
CATCTCCC | 0.0872
GGCGATAA | 0.136
AGTCATAT | -0.2
CTTCCTGA | -0.169
CATCGTTC | -0.116
ATTGGTTG | -0.201
AAGATCCT | -0.15
CACCCCAA | -0.234
CGTGTGGA | -0.0378
GACCGTTA | 0.127
CCCCGAAG | 0.0473
CCTATGTA | -0.0698
CCGTGCCC | 0.301
ATACGCCC | 0.25
GCTGGAAA | -0.0693
ATGCGAAT | 0.0748
ACGATAAC | -0.0762
CGTACCAC | 0.0907
CGATCTAG | -0.134
CGGTTTCA | 0.12
AAGAGGTA | -0.104
CCACCCGC | 0.352

Block 3 — method: RNA Bind-n-Seq; form: RNA; medium: in vitro; tested at: 365 nM; relative to: no-protein control; direction: higher = stronger binding
Target: RNA binding protein fox-1 homolog 2, RRM domain, GST-SBP tag (RBFOX2, Homo sapiens, UniProt O43251-10, residues 100-194)
Setting: natural RNA segment, single round, ends assumed
Oligonucleotide | RBNS enrichment (R)
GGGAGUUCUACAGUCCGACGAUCUUUCAUGCUUUAUGUUAUGUAGAAUUUGAGUUCAUGCUGAAUGCAUUCCAGCCAGUAAUUUAUAGCCUUUCCCCUAAAUCAAGAAUGAGUUUAAAAUUAUAGUCUGUCUUUGGAAUUCUCGGGUGCCAA | 0.616
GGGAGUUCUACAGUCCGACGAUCAGUUCCCCAGGCGCUGUAGACACAACAUGAAUCGGGCUCUCUGCUCUCUCCUUAGGGAGCUCGAGUCCUGGUGGGGAGAACAGGAGUAAACAAGGACUUGACAAAGCUGAUGGAAUUCUCGGGUGCCAA | 0.402
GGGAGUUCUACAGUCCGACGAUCGUAUGGUACUGGGGAAGUUUAUUCAUGCUUGCAAUCUUGUUUGGAAAUAAAAUGGGUCCGUCUGGAAGCAUGCCUCUGGCCCUUCCCUUGCCUGCACUGUCUGGUUCCAAUGGAAUUCUCGGGUGCCAA | 12.6
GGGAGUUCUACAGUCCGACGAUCCACUUCCUGGAUGUUGCAAUAAUACAAACCAGUGUACCUCUGACCUCACCGGGAGAGCUGGGGCGCUUCGAAGAUAAUCCCUACCCUCUACAUCAAAUGCGGCUGAGGCAUGGAAUUCUCGGGUGCCAA | 0.442
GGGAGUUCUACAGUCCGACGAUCGCAUUAGGAAGGUUGAGAACCACUUCUCUAGGGCUCAAUGUAUUAGAUAACUCACUAAGGGGUAAAAUAUGAAAUAUCAAAUCCUAAAAAGGAUAUUUAUAAUUAAAACAUGGAAUUCUCGGGUGCCAA | 0.852
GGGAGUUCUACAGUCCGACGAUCCUUAAAAGUCCUACGUGACUGAUUUUAAACAUUGUGAUAAAAUUAAUUUUCAGUAGAAUAGUUGAAUGUGUUAAGAUAGGAUUUUAUGUUAGAGAUACCAGAAUGCUGGUUGGAAUUCUCGGGUGCCAA | 1.16
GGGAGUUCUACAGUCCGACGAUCUGAAGACAUGGACCUCAACAAGGAUGGCGAGGUCCCUCCGGAGGAGGUCUCCACCUUCAUCAAGGCUCAAGUGAGUGAGGGCAAAGGACGCCUCAUGCCUGGGCAGGACCUGGAAUUCUCGGGUGCCAA | 0.41
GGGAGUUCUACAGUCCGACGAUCGGUAGUGCUCUAUCUGGUCAGGCUAUAGGCUGCGGGCAGCCUUCACUUCCAACCAGCCGCUGUGAGGAUUUAGUGAGCUAACGCAUGUAAGCAUUUAGCAAGGUGCCUGGUGGAAUUCUCGGGUGCCAA | 20
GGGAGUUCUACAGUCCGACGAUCGUUUUCAUUAACUGCAGUAUAUACAGUUCACUACAUAUGGGUUGUUUGAGUUUUUUGUGUGCUGUAUUUCUUUCUGUUUUUUAAUACCUGGUUUUGUACAUAUCUAACUCUGGAAUUCUCGGGUGCCAA | 1.78

Block 4 — method: RNA Bind-n-Seq; form: RNA; medium: in vitro; tested at: not given; relative to: input RNA pool; direction: higher = stronger binding
Target: RING finger protein unkempt homolog, zinc fingers 1-6, GST-SBP tag (UNK, Homo sapiens, UniProt Q9C0B0, residues 30-357)
UniProt Q9C0B0, sequence (30-357, looked up): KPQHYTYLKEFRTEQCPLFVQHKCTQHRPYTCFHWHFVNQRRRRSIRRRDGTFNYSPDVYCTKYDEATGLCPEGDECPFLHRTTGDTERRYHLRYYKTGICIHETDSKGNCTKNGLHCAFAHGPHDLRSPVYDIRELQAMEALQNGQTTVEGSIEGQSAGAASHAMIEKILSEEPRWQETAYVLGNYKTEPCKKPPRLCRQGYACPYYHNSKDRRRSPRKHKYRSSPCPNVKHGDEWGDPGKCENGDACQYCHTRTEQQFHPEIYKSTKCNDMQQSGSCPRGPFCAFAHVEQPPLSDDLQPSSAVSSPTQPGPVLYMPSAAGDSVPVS
Setting: RNA with constant flanks, human-mouse chimeric sites, ends assumed
Oligonucleotide | bound/input enrichment
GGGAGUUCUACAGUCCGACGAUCGUUGCCAGCUUCCGGUUGGCCUCCAUCCGGUUCUCUCCUGAGCUACGUGUCUCUACGCUCUCAAUCCCGGUUGGGUAAAACAUGGAUCAGGUAAUGCAGUUUGUGGAGCCCAGCCGGCAGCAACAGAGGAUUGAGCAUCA | 0.136 ratio
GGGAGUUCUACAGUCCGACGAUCAAAUUUCCCCUCCUGAGACCUCCUCCGAAGUUGGAGUCUCUUACAGAUGCCUCAUCCCCUGUUAGCGUUUUGGUCUGGACCACCCAGCCUUGGACAAUUCCCGCCAACCAGGCAAUUUGCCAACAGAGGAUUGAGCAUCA | 0.38 ratio
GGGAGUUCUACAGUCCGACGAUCCAGUCCCCGUGUCCCAGUGCAGGACGAUGUGAACAAAUCGAAGACAUGGACCCUCUAUUGUAGUUCUUUUUUUAAAUAAUGUGCUAUUAUUGUUUGUCUUUUUUUUUUUUUUUUUAAAGACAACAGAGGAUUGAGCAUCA | 15.9 ratio
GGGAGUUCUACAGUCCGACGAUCGGAAUUGCUGAUUCAAGUAAGUUUGAGUAUCACAAUGUUAGCUUUCUAAUUCCACACAAGUACUUGGUUUUUACAGUUUAUAAUCUGACAUCACCCCAGCGCCAUUUGUAAAGAGCAACUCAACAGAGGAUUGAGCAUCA | 0.489 ratio
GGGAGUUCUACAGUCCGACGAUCGCUGAAAAUGAAGAAGAGGCAGCUGAUGUCUGGUACAACCUGGGGCACAUAGCUGUGGGAAUCGGAGAUACAAAUUUGGCCCACCAAUGCUUCAGGCUGGCUCUGGUCCACAACAACCACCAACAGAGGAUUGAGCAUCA | 0.153 ratio
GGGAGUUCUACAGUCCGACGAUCGGAAGUACAAUGAUGGAGAUUGAUGGUGACAAAGGCAAGCAGGGCGGGCCCACCUACUACAUAGACACCAAUGCCCUCCGCGUGCCCAGGGAGAAUAUGGAGGCCAUCUCACCACUCAAGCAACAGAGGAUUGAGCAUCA | 0.238 ratio
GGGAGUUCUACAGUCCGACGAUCAUGGAGAAGGAUUCUCUGCCCCGCUUUGUGCGCUCUGAAUUUUAUAAGGAGCUAAUCAAGUAGUCAUUUAGCCAGGCUUCCAAAAGUUGCCCUGUGAUAUUUCCUCCAUCCUUUGUAGCACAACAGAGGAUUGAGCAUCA | 1.81 ratio
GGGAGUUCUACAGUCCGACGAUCCAGGGCAUUAUUUCUCGUGCUGUUAGACACCUUUUUAAGAGUAUUGAUGAGAAAAAGACCUCAGCGAUUAAAAACGGGCUGCCCCCUCCUGAAUUCAAAGUGAAUGCCCAGUUCCUAGAGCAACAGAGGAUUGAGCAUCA | 0.27 ratio
